Experimental data from different studies.
Protocols differ between the studies behind these lines. ≈ marks a conversion by molar mass, not a printed value.
Organism: Staphylococcus aureus

SMILES | test | system | conditions | how to read | measurement | value
C[C@H](NC(=O)[C@H](CCCCN)NC(=O)[C@H](CCCCN)NC(=O)[C@H](CCC(=O)O)NC(=O)[C@@H]1CCCN1)C(=O)N[C@@H](CCCCN)C(=O)N[C@@H](CCCCN)C(=O)N[C@@H](CCCCN)C(=O)O | OD600 | ATCC 25923 | concentration not given, 18 to 22 h, 37 °C, unheated | – | growth inhibition | 26.5%
CC[C@H](C)[C@H](NC(=O)CNC(=O)CNC(=O)[C@H](CO)NC(=O)[C@@H](NC(=O)[C@H](CCCCN)NC(=O)[C@H](CO)NC(=O)[C@H](CC(C)C)NC(=O)[C@H](CCC(=O)O)NC(=O)[C@@H](NC(=O)[C@H](CCC(=O)O)NC(=O)[C@H](CC(N)=O)NC(=O)[C@H](CC(C)C)NC(=O)[C@H](CCCCN)NC(=O)[C@H](CC(N)=O)NC(=O)[C@@H](N)CCSC)C(C)C)[C@@H](C)CC)C(=O)NCC(=O)N1CCC[C@H]1C(=O)N[C@@H](CC(C)C)C(=O)N[C@H](C(=O)N[C@H](C(=O)N1CCC[C@H]1C(=O)N[C@H](C(=O)N[C@@H](C)C(=O)N[C@@H](C)C(=O)N[C@H](C(=O)N[C@@H](CC(C)C)C(=O)NCC(=O)N[C@@H](Cc1ccccc1)C(=O)N[C@@H](CC(C)C)C(=O)N[C@@H](C)C(=O)N[C@H](C(=O)N[C@@H](CC(=O)O)C(=O)N[C@@H](C)C(=O)N[C@@H](Cc1c[nH]c2ccccc12)C(=O)N[C@@H](CC(N)=O)C(=O)N[C@@H](Cc1c[nH]cn1)C(=O)N[C@@H](C)C(=O)N[C@@H](CC(=O)O)C(=O)N[C@@H](CCC(=O)O)C(=O)N[C@@H](CC(C)C)C(=O)N[C@H](C(=O)N[C@@H](C)C(=O)NCC(=O)N[C@H](C(=O)N[C@@H](CCCCN)C(=O)N[C@@H](CCC(N)=O)C(=O)NCC(=O)N[C@@H](Cc1c[nH]c2ccccc12)C(=O)N[C@@H](CCC(=O)O)C(=O)N[C@@H](CCCNC(=N)N)C(=O)N[C@@H](CO)C(=O)O)C(C)C)C(C)C)[C@@H](C)O)[C@@H](C)CC)C(C)C)[C@@H](C)CC)C(C)C | – | ATCC 25923 | MIC, 2 h | – | log reduction in CFU | 2 log
CCCCc1ccc(-c2nc(C)c(C(C)=NNC(=N)N)s2)cc1 | – | NRS119 MRSA | – | – | MBC | 2.6 µg/mL (≈ 7.89 µM)
CCCCCCCCCCCCCCCC(=O)NCCCC[C@H](NC(=O)[C@H](CCCNC(=N)N)NC(=O)[C@H](Cc1ccc(O)cc1)NC(=O)[C@H](CC(C)C)NC(=O)[C@H](CCCNC(=N)N)NC(=O)CNS(=O)(=O)c1ccc(N)cc1)C(N)=O | – | ATCC 25923, C57BL/6 mouse, pneumonia model | intratracheal, 2 mg/kg | – | survival rate | 100%
CCOC(=O)c1sc(N/N=C/c2c(-c3ccccc3)nc3ncccn23)nc1C | microbial growth, well diffusion | ATCC23235 | 100 µg/mL | – | inhibition zone | 13 mm
CCCCCCCCCCCCCC(=O)N[C@H](CCN)C(=O)N[C@@H]1C(=O)N[C@@H](CCN)C(=O)N[C@@H](CC(C)C)C(=O)N[C@@H](CCN)C(=O)N[C@H](Cc2ccccc2)C(=O)N[C@@H](CC(C)C)C(=O)N[C@@H](CCN)C(=O)N[C@H](CCN)C(=O)N[C@@H](C(C)C)C(=O)N[C@@H](CC(=O)O)C(=O)O[C@@H]1C | – | ATCC BAA-44, MRSA, neutropenic mice, thigh infection | subcutaneous, 20 mg/kg once daily | relative to: vehicle | reduction in bacterial burden | 1.79 log10 CFU
FC(F)(F)c1ccc2nc3c4cccnc4c4ncccc4c3nc2c1.[Cl-].[Cl-].[Ru+2].c1ccncc1.c1ccncc1.c1ccncc1.c1ccncc1 | – | MRSA ATCC 43300 | 10 µM, 20 min, together with: light 470 nm | – | CFU reduction | > 4 log CFU
O=C(c1ccccc1O)c1[nH]c(Cl)c(Cl)c1-n1c(C(=O)c2ccccc2O)cc(Cl)c1Cl | BCECF-AM | NCTC 8325 | 1 × MIC, 10 min | – | intracellular pH decrease | 0.3 pH units
CC[C@H](C)[C@H](NC(=O)[C@H](CCCCN)NC(=O)[C@H](CCCCN)NC(=O)[C@H](Cc1c[nH]c2ccccc12)NC(=O)[C@H](CC(N)=O)NC(=O)[C@@H](N)C(C)C)C(=O)N[C@@H](CC(C)C)C(=O)NCC(=O)N[C@@H](CCCCN)C(=O)N[C@H](C(=O)N[C@H](C(=O)N[C@@H](CCCCN)C(=O)N[C@H](C(=O)N[C@H](C(=O)N[C@@H](CCCCN)C(N)=O)C(C)C)C(C)C)[C@@H](C)CC)[C@@H](C)CC | – | MSSA RN 4220, RPMI medium | 24 h, 37 °C | – | LC99.9 | 3.7 µM
CC[C@H](C)[C@H](NC(=O)[C@H](CCN)NC(=O)CCCCCCCCCCCNC(=O)CCCCCOC(=O)c1cn(C2CC2)c2cc(N3CCNCC3)c(F)cc2c1=O)C(=O)N[C@@H](CCN)C(=O)N[C@H](Cc1ccccc1)C(=O)N[C@@H](CC(C)C)C(=O)N[C@@H](CCN)C(=O)N[C@@H](C(=O)N[C@@H](CC(C)C)C(=O)N[C@@H](CO)C(N)=O)C(C)C | optical density | – | 50 µM, 12 h, 37 °C | – | bacterial survival | 24.6%
